Measured values of several laboratories.
Numbers after ± are the reported error.

| Structure (SMILES) | assay | test system | conditions | how to read | quantity | value |
| --- | --- | --- | --- | --- | --- | --- |
| NC(=O)[C@H]1CCN(c2ncnc(N)c2F)C[C@@H]1N1CCC[C@@H](Nc2cc(Cl)cc(C(F)(F)F)c2)C1=O | – | B-cell malignancy patients | oral, 82 mg twice daily, dose | – | grade ≥3 anaemia | 14% |
| CCC[C@@](N)(CO)CCc1ccc(OCCCCCC(C)C)cc1 | – | dog, male hounds, plasma | oral capsule, 15 mg/kg, geometric mean | – | AUC(0-t) | 16 µM·h |
| O=C(Nc1ccccc1)C1CCN(C(=O)Oc2cccnc2)CC1 | adverse event reporting | healthy women | oral, 60 mg, 7 days | – | subjects with nervous system disorders | 71.4% |
| CC(C)[C@H](C(=O)O[C@H](C#N)c1cccc(Oc2ccccc2)c1)c1ccc(Cl)cc1 | measured: CYP2B6 | human, age 5 years | – | – | enzyme contribution to clearance | 0.78% |
| CN[C@@H](C)C(=O)N[C@H]1CN(S(=O)(=O)c2cccc(S(=O)(=O)N3CC[C@H]4CC[C@@H](C(=O)NC(c5ccccc5)c5ccccc5)N4C(=O)[C@@H](NC(=O)[C@H](C)NC)C3)c2)CC[C@H]2CC[C@@H](C(=O)NC(c3ccccc3)c3ccccc3)N2C1=O | – | patients with advanced solid tumours | 7 mg, phase I monotherapy | – | treatment-related pruritus incidence | 0% |
| Cc1ncnc2c1ccn2[C@@H]1C[C@H](Oc2cc(C(F)F)c(F)c3c2CNCC3)[C@@H](O)[C@H]1O | – | patients | dose not given, any grade | relative to: patients | Hypomagnesemia incidence | 6% |
| CO[C@H]1C[C@@H]2CC[C@@H](C)[C@@](O)(O2)C(=O)C(=O)N2CCCC[C@H]2C(=O)O[C@H]([C@H](C)C[C@@H]2CC[C@@H](OC(=O)NCCOCCOCCOCCOCCOCCOCCOCCOCCC(=O)N3CCc4cc(Cn5nc(-c6ccc7oc(N)nc7c6)c6c(N)ncnc65)ccc4C3)[C@H](OC)C2)C[C@@H](O)[C@H](C)/C=C(\C)[C@@H](O)[C@@H](OC)C(=O)[C@H](C)C[C@H](C)/C=C/C=C/C=C/1C | dose-escalation trial | patients with advanced solid tumours | intravenous, 1.6 mg/3 mg weekly, any grade | – | AEs leading to discontinuation | 0% |
| O=C(c1ccc(F)c(F)c1Nc1ccc(I)cc1F)N1CC(O)([C@@H]2CCCCN2)C1 | – | patients aged 2 to 6 years | oral, dose not given | – | serious adverse events | 40% |
| COc1cc2c(Oc3ccc4[nH]c(C)cc4c3F)ccnc2cc1OCC1(N)CC1 | – | paediatric recurrent refractory sarcoma | concentration not given, whole group | – | grade 1 or 2 Appendicitis | 0% |
| O=[N+]([O-])c1ccc2c(c1)S(=O)(=O)C=C2 | – | male C57BL/6 mice, blood | intraperitoneal, 20 mg/kg, day 8, group average | – | platelet distribution width | 14.8% |
| CC(C)C[C@H](NC(=O)[C@H](CCCCN)NC(=O)OCC1c2ccccc2-c2ccccc21)C(=O)N[C@H](C(=O)N[C@@H](Cc1ccccc1)C(=O)N[C@@H](Cc1ccccc1)C(=O)N[C@@H](CCCCN)C(=O)NCC(=O)N[C@@H](Cc1ccccc1)C(=O)N[C@@H](C)C(=O)N[C@@H](Cc1c[nH]c2ccccc12)C(=O)N[C@@H](CC(N)=O)C(=O)N[C@H](C(=O)N[C@H]1CSSC[C@@H](C(=O)N[C@@H](Cc2c[nH]cn2)C(=O)N[C@@H](CCCNC(=N)N)C(=O)N[C@@H](CCCNC(=N)N)C(=O)N[C@@H](C)C(=O)N[C@@H](CC(N)=O)C(N)=O)NC(=O)[C@H](C(C)C)NC(=O)[C@H](CCCNC(=N)N)NC(=O)[C@H](C(C)C)NC(=O)CNC(=O)[C@H](CC(N)=O)NC(=O)[C@H](CCCNC(=N)N)NC(=O)[C@H](Cc2ccc(O)cc2)NC(=O)[C@H](C(C)C)NC1=O)C(C)C)C(C)C | – | ICR mouse | ip, 5 mg/kg | direction not given | tremor score | 0 |
| CCCCCCCCCCCCCCCC(=O)N[C@@H](CCC(=O)NCCCC[C@H](NC(=O)[C@H](CC(=O)O)NC(=O)[C@H](CO)NC(=O)[C@@H](NC(=O)[C@H](Cc1ccccc1)NC(=O)[C@@H](NC(=O)CNC(=O)[C@H](CCC(N)=O)NC(=O)[C@H](CO)NC(=O)[C@@H](N)Cc1c[nH]cn1)[C@@H](C)O)[C@@H](C)O)C(=O)N[C@@H](CO)C(=O)N[C@@H](CCC(=O)O)C(=O)N[C@@H](Cc1ccc(O)cc1)C(=O)N[C@@H](CC(C)C)C(=O)N[C@@H](CC(=O)O)C(=O)N[C@@H](CO)C(=O)N[C@@H](CCC(=O)O)C(=O)N[C@@H](CCCNC(=N)N)C(=O)N[C@@H](C)C(=O)N[C@@H](CCCNC(=N)N)C(=O)N[C@@H](CC(=O)O)C(=O)N[C@@H](Cc1ccccc1)C(=O)N[C@H](C(=O)N[C@@H](C)C(=O)N[C@@H](Cc1c[nH]c2ccccc12)C(=O)N[C@@H](CC(C)C)C(=O)N[C@@H](CCC(=O)O)C(=O)N[C@@H](C)C(=O)NCC(=O)NCC(=O)O)C(C)C)C(=O)O | measured: Dyspepsia | humans CrCl below 20 mL/min | subcutaneous, 100 µg single dose | – | treatment-related adverse events | 0% |
| CN(C(=O)n1cnc(-c2ccc[n+]([O-])c2)c1)C1CCCCC1 | – | Wistar rat, cerebellum | oral, 10 mg/kg/day, 72 h, repeated 5 days | – | concentration | 14.8 ± 7.3 ng/g |

For quick reference, copied from above:
| Structure (SMILES) | assay | test system | conditions | how to read | quantity | value |
| --- | --- | --- | --- | --- | --- | --- |
| O=C(c1ccc(F)c(F)c1Nc1ccc(I)cc1F)N1CC(O)([C@@H]2CCCCN2)C1 | – | patients aged 2 to 6 years | oral, dose not given | – | serious adverse events | 40% |
| CN(C(=O)n1cnc(-c2ccc[n+]([O-])c2)c1)C1CCCCC1 | – | Wistar rat, cerebellum | oral, 10 mg/kg/day, 72 h, repeated 5 days | – | concentration | 14.8 ± 7.3 ng/g |
